Assay results pooled from the literature.
Cell line: NCI-H226

COc1ccc(OC)c(-c2nc3ccc(-c4nc5ccc(N6CCN(C)CC6)cc5[nH]4)cc3[nH]2)c1 — growth percent (cell growth, NCI-60 SRB; 10 µM): 103%
O=C(Nc1nnc2n3c(nc(-c4ccc(Cl)cc4)c1-2)SCC3=O)c1ccccc1 — cell growth (SRB; 10 µM, NCI60 single-dose screen; reference: untreated): 79.1%
[Br-].c1ccc2cc(Cn3c[n+](Cc4ccc5ccccc5c4)c4ccccc43)ccc2c1 — TGI (NCI60 five-dose screen): 3.25 µM
Cc1cc(-c2ccccc2)n(-c2nc(-c3ccc(Cl)cc3)c3c(NC(=O)c4ccccc4)nnc-3[nH]2)n1 — cell growth (SRB; 10 µM, NCI60 single-dose screen; reference: untreated): 93.8%
Cn1cncc1C1=CN(c2ncnc3[nH]cnc23)CCS1 — GI50 (lung cancer): 14.8 µM
CCN(CC)c1ccc(C=NNC(=O)CSc2nc3ccccc3c(=O)n2Cc2ccc(S(N)(=O)=O)cc2)c(O)c1 — TGI (NCI five-dose screen): > 100 µM
S=C([S][Au-][P+](CCCCCC[P+]([Au-][S]C(=S)n1cccn1)(c1ccccc1)c1ccccc1)(c1ccccc1)c1ccccc1)n1cccn1 — log10 TGI (cell growth, NCI-60 screen; non-small cell lung cancer): > -4
CCCCCCCCCCCCCCCCCCOc1ccc(CC(=O)OCC[N+]2(C)CCOCC2)cc1 — growth inhibition (SRB; 10 µM): < 0%
CCOC(=O)CSc1nc(-c2ccc(Cl)cc2)c2c(NC(=O)c3ccccc3)nnc-2[nH]1 — cell growth (SRB; 10 µM, NCI60 single-dose screen; reference: untreated): 91%
CCCc1n(Cc2ccc3ccccc3c2)c2ccccc2[n+]1Cc1ccc2ccccc2c1.[Br-] — TGI (NCI60 five-dose screen): 1.8 µM
C#C[C@@]1(O)[C@@H](CO)O[C@@H](n2cc(F)c3c(N)ncnc32)[C@@H]1O — TGI (SRB; NCI-60 screen): 2.63 µM
CCOc1ccc(-c2nc3cc(-c4nc5cc(N6CCN(C)CC6)ccc5[nH]4)ccc3[nH]2)cc1OCC — growth percent (cell growth, NCI-60 SRB; 10 µM): -8.92%
O=C(Nc1nnc2[nH]c(=S)[nH]c(-c3ccc(Cl)cc3)c1-2)c1ccccc1 — cell growth (SRB; 10 µM, NCI60 single-dose screen; reference: untreated): 85.2%
CCCN1CCN(c2ccc3[nH]c(-c4ccc5[nH]c(-c6ccc(OCC)c(OCC)c6)nc5c4)nc3c2)CC1 — growth percent (cell growth, NCI-60 SRB; 10 µM): -58.2%
O=C(/C=C/C=C/C=C/C1CCCCC1)NC1=C[C@@](O)(/C=C/C=C/C=C/C(=O)NC2=C(O)CCC2=O)[C@@H]2O[C@@H]2C1=O — GI50 (cell growth, CellTiter-Glo; 78 h): 18.5 µM

For quick reference, copied from above:
[Br-].c1ccc2cc(Cn3c[n+](Cc4ccc5ccccc5c4)c4ccccc43)ccc2c1 — TGI (NCI60 five-dose screen): 3.25 µM
CCCN1CCN(c2ccc3[nH]c(-c4ccc5[nH]c(-c6ccc(OCC)c(OCC)c6)nc5c4)nc3c2)CC1 — growth percent (cell growth, NCI-60 SRB; 10 µM): -58.2%
